Measurements pooled from the literature.
Every numbered part comes from another study and shows a few of its results, in no order. Positions count from the first letter of the parent shown.

Block 1
Target: RNA binding protein fox-1 homolog 2, RRM domain, GST-SBP tag (RBFOX2, Homo sapiens, UniProt O43251-10, residues 100-194)
Technique: RNA Bind-n-Seq
Molecule type: RNA
Sample: in vitro
Concentration: 365 nM
Setting: natural RNA segment, single round, ends assumed
Baseline: no-protein control
Direction: higher = stronger binding
All sequences stand within: GGGAGUUCUACAGUCCGACGAUC … UGGAAUUCUCGGGUGCCAA
Construct (chain): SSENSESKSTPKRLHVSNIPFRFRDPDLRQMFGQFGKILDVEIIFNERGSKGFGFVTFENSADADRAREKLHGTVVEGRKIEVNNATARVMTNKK
Under “RBNS enrichment (R)”, `AUGUCUUUCUAAAAUUGUCUAUUAAAGCAGAGGAAAUACCUGCCAAAGGAAGUAUGUAUUGCAUUAAUCAGGGCAUAACUAAUAUUCUCCUGUUCAGAAUAAUACUUAUU` is recorded as 0.475.
`UCAGAAACUUUAUUUUAGCUGUCAAGCAGAGAAUAGCUUGAACUAUUCAGACUAUUGUUGGCACUGUUUAGUAGUGACCACACGCUCUUCUACCCGGGAAGGAACAUAUG`: “RBNS enrichment (R)” 0.357.
For `ACUUUGAGGUUAGUCUGAAUCUUGAACUUUAAUACCAAAUUAAUUUUGAAUGCUUUUGUUUCCUAAGAGAUAAUGGCAUGGUUUCAUAUGUUAUACUUUGGACAGACAGA`, “RBNS enrichment (R)” read 0.457.
For `UUACAUAGCACAUCAUUCCUCCUAUAGGGAUGAACUUUUUUUCCGACACAAAAAGUAGCCACUGCGGUUAAAGCUUUGCUUAUUGUAACAGGCUUUUAUUUCCAGGUAAC`, “RBNS enrichment (R)” read 0.633.
`AUAUAUUCCUGUUUAUUUUUCUAUGUUCUGUUUUGUAGCCUUAAGAAGUGUUUCAAACAUAUCUGAAUGUAUAAAAUAAGAGUAAAUGCCCUACAUGGUGUGAUGCUGCA` — result for “RBNS enrichment (R)”: 0.389.
`UUAAGGGUUAAAUCACUUUUGCUUGUGUUUAUUACUGCUUGAGGUUGAGCCUUUUGAGUAUUUAAAAAAUAUAUACCAACAGAACUACUCUCCCAAGGAAAAUAUUGCCA`: “RBNS enrichment (R)” 0.437.
Under “RBNS enrichment (R)”, `UCUUGAAAACGGUACAUAUUUUAGUAUUUGUGCAGAAAAACAAGUCCUAAAGUAUUUGUUUUUAUUUGUACCAUCCACUUGUGCCUUACUGUAUCCUGUGUCAUGUCCAA` is recorded as 0.375.
`UAGGACUGCAGUGUGGAGUUCACCUUGGAAGGGCGUUCUAGGUAGGAAGAGCCCGCAGGGCCAUGCAGACCUCAUGCCCAGCUCUCUGACGCUUGUGACAGUGCCUCUUC` — result for “RBNS enrichment (R)”: 0.231.
Under “RBNS enrichment (R)”, `UGACAAAAUAUAUUUAUAACUACGUAUUAAAAGAAAAAAAUAAAAUGAGUCAUUAUUUUAAAGGUAAUCAUGAUUUUUUUUUUCUCCUUAAUCCUUUCUCUUUUCCUUCG` is recorded as 0.724.
Under “RBNS enrichment (R)”, `UUCCAGACCCAGAGUUUCGACCGCUUGGAUAAUUGAGCCAAGAAGCAAUCCCACAACUGCCUUCUCAAACACCAAAAGCAACAUCUUUUUUAAAACUUCCUAUAAUUCUC` is recorded as 1.06.
`AAGAGCAUGUGAAGAUGUGAUCAUUUGUGAUGUUACUUGUAAAAAAAAGUAUAUAUACAUAUCUUUUGAAGUGUUAAAAGGAAACUAGUACUUUAUAUUCUUUAUCAUAU`: “RBNS enrichment (R)” 7.34.
`GCAAUGAUCCAGUCUAAAGUAGAACCUCAAUUUAAAAGAUUGAGGUUCAGAGCAUCAACACUCCAUACACCUCCCCAAGUCAGCCAUAGACUGUUUUUUUUUUCAGAAGU` — result for “RBNS enrichment (R)”: 0.416.

Block 2
Target: Sal-like protein 4, full length isoform A (SALL4, Homo sapiens, UniProt Q9UJQ4, residues 1-1053)
UniProt Q9UJQ4, sequence (whole entry, looked up): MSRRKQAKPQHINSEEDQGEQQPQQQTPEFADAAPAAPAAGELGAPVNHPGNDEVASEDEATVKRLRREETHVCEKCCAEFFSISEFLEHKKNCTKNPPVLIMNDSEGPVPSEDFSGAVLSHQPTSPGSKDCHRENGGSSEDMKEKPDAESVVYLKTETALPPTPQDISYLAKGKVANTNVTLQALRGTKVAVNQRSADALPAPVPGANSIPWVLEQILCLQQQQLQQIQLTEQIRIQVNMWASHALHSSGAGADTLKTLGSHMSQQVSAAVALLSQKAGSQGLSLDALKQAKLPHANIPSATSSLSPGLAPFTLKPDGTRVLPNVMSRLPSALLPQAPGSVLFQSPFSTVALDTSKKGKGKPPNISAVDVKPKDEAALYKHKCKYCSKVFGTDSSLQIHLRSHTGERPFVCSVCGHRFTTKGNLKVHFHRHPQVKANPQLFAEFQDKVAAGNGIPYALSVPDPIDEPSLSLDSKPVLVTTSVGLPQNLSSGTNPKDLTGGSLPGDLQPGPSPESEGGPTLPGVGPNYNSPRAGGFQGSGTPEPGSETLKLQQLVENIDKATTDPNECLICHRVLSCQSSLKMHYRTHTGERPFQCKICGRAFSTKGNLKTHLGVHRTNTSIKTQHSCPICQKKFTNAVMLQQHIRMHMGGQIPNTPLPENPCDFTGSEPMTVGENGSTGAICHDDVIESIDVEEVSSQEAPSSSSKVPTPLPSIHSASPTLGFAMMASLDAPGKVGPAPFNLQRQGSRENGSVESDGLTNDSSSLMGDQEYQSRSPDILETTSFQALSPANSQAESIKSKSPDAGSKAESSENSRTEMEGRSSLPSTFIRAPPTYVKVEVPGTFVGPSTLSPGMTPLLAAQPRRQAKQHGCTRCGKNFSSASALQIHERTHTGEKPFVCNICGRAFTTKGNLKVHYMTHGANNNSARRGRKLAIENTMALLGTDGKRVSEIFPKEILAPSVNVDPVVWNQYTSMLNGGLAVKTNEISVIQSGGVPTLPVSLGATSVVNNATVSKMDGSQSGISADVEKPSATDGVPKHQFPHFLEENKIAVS
Technique: universal PBM
Molecule type: double-stranded DNA, one strand shown
Sample: in vitro
Concentration: 600 nM
Setting: 8-mer, flanks averaged, mean of replicates
Direction: higher = stronger binding
With `TACTAGGA` the E-score was 0.0529.
With `ACTTGTAC` the E-score was 0.0842.
With `CGGAACGA` the E-score was -0.0479.
For `TAATGCTA`, the E-score was 0.234.
The E-score of `CCCCTCGC` is reported as -0.192.
For `CATTGGAC`, the E-score was -0.0252.
For `AACATACC`, the E-score was 0.137.
`CGTTGGAA` has an E-score of -0.0379.
With `GAATTGTA` the E-score was 0.112.
`AACCCTGA` gave an E-score of 0.0534.
`CAAGGCTC` has an E-score of -0.277.
`ACGATACA` gave an E-score of 0.127.
`AGGTTGCG` has an E-score of -0.163.
`AAATCGGG` gave an E-score of 0.139.
With `ACATAGCT` the E-score was 0.0661.
`AGGCGAGA` gave an E-score of -0.206.
`ATTACTTC` has an E-score of 0.165.
`AACGGCCG` gave an E-score of -0.21.
With `TCCTCACA` the E-score was 0.053.
For `GCCCGTCC`, the E-score was -0.344.
With `GCGTGTAA` the E-score was -0.0574.
With `ATGAGCGA` the E-score was 0.0602.
For `GATACCCC`, the E-score was -0.194.
The E-score of `CAACGAGA` is reported as 0.151.
`CCTAAATA` gave an E-score of 0.0805.

Block 3
Target: RING finger protein unkempt homolog, zinc fingers 1-6, GST-SBP tag (UNK, Homo sapiens, UniProt Q9C0B0, residues 30-357)
Technique: RNA Bind-n-Seq
Molecule type: RNA
Sample: in vitro
Concentration: not given
Setting: RNA with constant flanks, ends assumed
Baseline: input RNA pool
Direction: higher = stronger binding
All sequences stand within: GGGAGUUCUACAGUCCGACGAUC … CAACAGAGGAUUGAGCAUCA
Construct (chain): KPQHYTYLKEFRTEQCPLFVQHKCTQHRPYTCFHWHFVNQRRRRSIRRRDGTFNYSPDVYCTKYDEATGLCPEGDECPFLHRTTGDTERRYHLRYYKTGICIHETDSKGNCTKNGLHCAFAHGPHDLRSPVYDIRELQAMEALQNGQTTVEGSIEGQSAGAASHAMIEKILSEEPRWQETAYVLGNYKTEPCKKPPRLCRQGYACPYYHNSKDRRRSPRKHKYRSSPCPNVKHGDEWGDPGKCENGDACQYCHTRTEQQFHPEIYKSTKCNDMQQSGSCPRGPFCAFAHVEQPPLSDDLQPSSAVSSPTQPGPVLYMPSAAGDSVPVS
The bound/input enrichment of `CAAGAUUUUCAGAUGUUAAGUAGAAUAUGGACUCAUCCUUGGUGUUUGCAGCUAGACUACAUCCGCAAAGAAAAUAAGGGUUAUUUUGAUGAAGACAGUAUGGAUGAAUUUAUAGCCUCA` is reported as 0.268 ratio.
For `UUCUCCACUUUUUAUUGAUGAUUUAAAACACUCUAGUCUUCCCCUCAAAUCAUGCAUGCAAACCGGAGGACAGUGGUGGUGACUCAACUGGAUACAGGUGCUCAAUAGUCAGGCUUGAUA`, the bound/input enrichment was 0.338 ratio.
The bound/input enrichment of `GGGGGCGGGUGGAGGGUAGGAUUUGUGCUGGAUGAGGCCGCUGCUUCCUCGGACCCCAGAACCCGGACUUGGCCACGUUGCAGCCCCCGUUCGGGUAACGUUUUUCUUCACGCCGCAGCC` is reported as 0.34 ratio.
`GCGGUGGUGGUGGAGAAGGACGCAGUGUUUAUUCCAGCAGGGUGGGAUAAUGAUAAGAAAACCGGAAUAUUACAUGAAAAUUUUCAGACUUUGAAAGUAGAAGAUAAUUUUGAAGACAUC` has a bound/input enrichment of 1.27 ratio.
For `CGAUAAUACUUGACCUCUGUGACCAACUAUUGGAUUGAGAAACUGACAAGCCUUGGUUGACCGCAAGAACCCUUUCAGUUUACAUUGUGACAUUCUGUUGUAAAAAUCAACUAAAAUGCU`, the bound/input enrichment was 0.197 ratio.
The bound/input enrichment of `ACCAUUGCCUUGCUUGGUUACCUGAAGCACUACAGAAACAUUCCUGGACCCCACAUGGUUUCCGUUCCCAAGUCUACUUUACAUAACUGGAUGAAUGAAUUUAAACGAUGGGUUCCAUCU` is reported as 0.0535 ratio.
The bound/input enrichment of `AAAUUCUACAAACAAGUUAUUGAUAAAGGCCAAACAAUUCCAGAGGAUAUCUUAGGAAAGACCGCAGUUUCUAUUGUAAAAGCGUUAGAACAUUUACACAGUAAGCUGUCUGUUAUCCAU` is reported as 0.299 ratio.
`ACUGGAGGGGCAGCCUCUGUGAAGCAGCACCAUUCAAGUGCCCACAACAAAGACAUUGCUUCCGGGGUAUUUGAUGUGGUGGUGACAGACCCCUCAUGCCCAGCCUCGGUGCUCAAGUGU` has a bound/input enrichment of 0.112 ratio.
The bound/input enrichment of `UGCAACCAGCCUCAGGAUGCCAUUAAAUGCUACUUAAAUGCAACUAGAAGCAAAAGUUGCCGUAAUACCUCUGCACUUGCAGCACGAAUUAAGUAUUUACAGGCUCAGUUGUGUAACCUU` is reported as 0.154 ratio.
`UCUGUAGGAUGGCCAGCAUCCCGUGGUCCCUUUCAGCUGCUCAGUGCAUCCCUUGCAUCAUCCGUACCCUGUCUUGACAGCUUGAGGUCCUGGCAGUCUAUGUUUGCCCUUUGCUCAGGG` has a bound/input enrichment of 0.104 ratio.
With `AGUAUUAUUUAGUGAAUUAAUCUGACCGUACAGAAGAGUCAUGUUCUGACCUCAAUACUACCGUAACUUUUAGGCUUGGAAAUAAAAGUUUGUUGGUAUCUACUGGCAAGUAUUUAAGUU` the bound/input enrichment was 1.12 ratio.

Block 4
Target: CCND2, cyclin fold, Cln2 fusion (human)
Technique: yeast growth competition, sequencing
Sample: yeast
Setting: weak parent motif
Baseline: not given
Direction: higher = stronger binding
Parent: E2F7 docking peptide (human); SSAQRRLEIPSGG; partner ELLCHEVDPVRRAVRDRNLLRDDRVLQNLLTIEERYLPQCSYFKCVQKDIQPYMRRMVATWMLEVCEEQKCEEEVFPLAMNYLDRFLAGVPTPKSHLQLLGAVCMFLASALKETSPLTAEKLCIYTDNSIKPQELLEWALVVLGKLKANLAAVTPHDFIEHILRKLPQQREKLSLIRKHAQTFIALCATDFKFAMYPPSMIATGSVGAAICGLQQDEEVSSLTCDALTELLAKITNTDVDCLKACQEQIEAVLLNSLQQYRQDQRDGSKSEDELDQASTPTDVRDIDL
For `SSAQRRLAIPSGG [E8A]`, “normalised enrichment score” read 0.263.
`SSAQKRLEFPSGG [R5K I9F]`: “normalised enrichment score” 0.254.
`SAAQRRLEIPSGG [S2A]` — result for “normalised enrichment score”: -0.178.
`SSAQARLEIPSGG [R5A]` — result for “normalised enrichment score”: 0.262.
`ASAQRRLEIPSGG [S1A]`: “normalised enrichment score” 0.401.
For `SSAQRRLEAPSGG [I9A]`, “normalised enrichment score” read 0.669.
For `SSAQARAEIPSGG [R5A L7A]`, “normalised enrichment score” read 0.22.
Under “normalised enrichment score”, `SSAQKRLEIPSGG [R5K]` is recorded as -0.387.
For `SSAQRRLELPSGG [I9L]`, “normalised enrichment score” read 0.178.
For `SSAQRRLEIASGG [P10A]`, “normalised enrichment score” read 0.0726.

Block 5
Target: Histone acetyltransferase KAT6A, winged helix 2, GST fusion (KAT6A, Homo sapiens, UniProt Q92794, residues 85-181)
Technique: protein binding microarray
Molecule type: double-stranded DNA, one strand shown
Sample: in vitro
Concentration: not given
Setting: 8-mer, flanks averaged, mean of 2 arrays, mostly near background
Baseline: not given
Direction: higher = stronger binding
Residues (chain): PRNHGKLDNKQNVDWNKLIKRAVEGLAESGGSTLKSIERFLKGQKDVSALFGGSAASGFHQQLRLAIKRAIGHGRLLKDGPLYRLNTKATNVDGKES
`AGCTATAA` has an E-score of -0.176.
`CCGACACA` gave an E-score of 0.0634.
With `GGTATTAA` the E-score was 0.17.
With `AGCTCGTG` the E-score was 0.0442.
For `AAGAAAGC`, the E-score was 0.0715.
`CTTCGGTC` gave an E-score of 0.141.
`ACTGGACG` gave an E-score of -0.111.
`GGACCATA` has an E-score of -0.0797.
`GTAACCGA` has an E-score of 0.0208.
`CCTGATAG` gave an E-score of -0.109.
`CTTTCGCC` has an E-score of 0.0483.
`AGACATCG` gave an E-score of 0.0282.
`ACATAAAG` has an E-score of -0.0311.
The E-score of `CCGGTCGA` is reported as 0.0295.
`AGGAGGCG` has an E-score of -0.0254.
`CCGTGACG` gave an E-score of -0.0802.
For `AAAATAGT`, the E-score was -0.129.
`AACCGTTC` has an E-score of -0.0183.
`ACATTAGT` has an E-score of -0.22.
With `CACCAATA` the E-score was -0.0476.
`AAGAGATT` gave an E-score of -0.11.
`CAGACGCA` has an E-score of 0.176.
With `CGCCACGA` the E-score was 0.0732.
With `ATTATTCG` the E-score was 0.0735.
`AGAGCATC` gave an E-score of 0.0654.

Further values, each from its own experiment
`PhoQ, residues 284 288 289 292 302 303 SSTLLI` has a fold induction of 0.88 (PhoP, residues 12 14 15 18 19 SYFRT (Escherichia coli, UniProt P23836); Sort-seq, refers to: YFP reporter; E. coli; PhoQ-PhoP variant library, together with: 10 µM Mg2+; baseline: high Mg2+ state, higher = stronger signaling).
